Published values pooled from the literature.
Numbered parts are unrelated; each lists some results of a single study.
Sequence of UniProt Q5S007 (whole entry, unmodified, looked up): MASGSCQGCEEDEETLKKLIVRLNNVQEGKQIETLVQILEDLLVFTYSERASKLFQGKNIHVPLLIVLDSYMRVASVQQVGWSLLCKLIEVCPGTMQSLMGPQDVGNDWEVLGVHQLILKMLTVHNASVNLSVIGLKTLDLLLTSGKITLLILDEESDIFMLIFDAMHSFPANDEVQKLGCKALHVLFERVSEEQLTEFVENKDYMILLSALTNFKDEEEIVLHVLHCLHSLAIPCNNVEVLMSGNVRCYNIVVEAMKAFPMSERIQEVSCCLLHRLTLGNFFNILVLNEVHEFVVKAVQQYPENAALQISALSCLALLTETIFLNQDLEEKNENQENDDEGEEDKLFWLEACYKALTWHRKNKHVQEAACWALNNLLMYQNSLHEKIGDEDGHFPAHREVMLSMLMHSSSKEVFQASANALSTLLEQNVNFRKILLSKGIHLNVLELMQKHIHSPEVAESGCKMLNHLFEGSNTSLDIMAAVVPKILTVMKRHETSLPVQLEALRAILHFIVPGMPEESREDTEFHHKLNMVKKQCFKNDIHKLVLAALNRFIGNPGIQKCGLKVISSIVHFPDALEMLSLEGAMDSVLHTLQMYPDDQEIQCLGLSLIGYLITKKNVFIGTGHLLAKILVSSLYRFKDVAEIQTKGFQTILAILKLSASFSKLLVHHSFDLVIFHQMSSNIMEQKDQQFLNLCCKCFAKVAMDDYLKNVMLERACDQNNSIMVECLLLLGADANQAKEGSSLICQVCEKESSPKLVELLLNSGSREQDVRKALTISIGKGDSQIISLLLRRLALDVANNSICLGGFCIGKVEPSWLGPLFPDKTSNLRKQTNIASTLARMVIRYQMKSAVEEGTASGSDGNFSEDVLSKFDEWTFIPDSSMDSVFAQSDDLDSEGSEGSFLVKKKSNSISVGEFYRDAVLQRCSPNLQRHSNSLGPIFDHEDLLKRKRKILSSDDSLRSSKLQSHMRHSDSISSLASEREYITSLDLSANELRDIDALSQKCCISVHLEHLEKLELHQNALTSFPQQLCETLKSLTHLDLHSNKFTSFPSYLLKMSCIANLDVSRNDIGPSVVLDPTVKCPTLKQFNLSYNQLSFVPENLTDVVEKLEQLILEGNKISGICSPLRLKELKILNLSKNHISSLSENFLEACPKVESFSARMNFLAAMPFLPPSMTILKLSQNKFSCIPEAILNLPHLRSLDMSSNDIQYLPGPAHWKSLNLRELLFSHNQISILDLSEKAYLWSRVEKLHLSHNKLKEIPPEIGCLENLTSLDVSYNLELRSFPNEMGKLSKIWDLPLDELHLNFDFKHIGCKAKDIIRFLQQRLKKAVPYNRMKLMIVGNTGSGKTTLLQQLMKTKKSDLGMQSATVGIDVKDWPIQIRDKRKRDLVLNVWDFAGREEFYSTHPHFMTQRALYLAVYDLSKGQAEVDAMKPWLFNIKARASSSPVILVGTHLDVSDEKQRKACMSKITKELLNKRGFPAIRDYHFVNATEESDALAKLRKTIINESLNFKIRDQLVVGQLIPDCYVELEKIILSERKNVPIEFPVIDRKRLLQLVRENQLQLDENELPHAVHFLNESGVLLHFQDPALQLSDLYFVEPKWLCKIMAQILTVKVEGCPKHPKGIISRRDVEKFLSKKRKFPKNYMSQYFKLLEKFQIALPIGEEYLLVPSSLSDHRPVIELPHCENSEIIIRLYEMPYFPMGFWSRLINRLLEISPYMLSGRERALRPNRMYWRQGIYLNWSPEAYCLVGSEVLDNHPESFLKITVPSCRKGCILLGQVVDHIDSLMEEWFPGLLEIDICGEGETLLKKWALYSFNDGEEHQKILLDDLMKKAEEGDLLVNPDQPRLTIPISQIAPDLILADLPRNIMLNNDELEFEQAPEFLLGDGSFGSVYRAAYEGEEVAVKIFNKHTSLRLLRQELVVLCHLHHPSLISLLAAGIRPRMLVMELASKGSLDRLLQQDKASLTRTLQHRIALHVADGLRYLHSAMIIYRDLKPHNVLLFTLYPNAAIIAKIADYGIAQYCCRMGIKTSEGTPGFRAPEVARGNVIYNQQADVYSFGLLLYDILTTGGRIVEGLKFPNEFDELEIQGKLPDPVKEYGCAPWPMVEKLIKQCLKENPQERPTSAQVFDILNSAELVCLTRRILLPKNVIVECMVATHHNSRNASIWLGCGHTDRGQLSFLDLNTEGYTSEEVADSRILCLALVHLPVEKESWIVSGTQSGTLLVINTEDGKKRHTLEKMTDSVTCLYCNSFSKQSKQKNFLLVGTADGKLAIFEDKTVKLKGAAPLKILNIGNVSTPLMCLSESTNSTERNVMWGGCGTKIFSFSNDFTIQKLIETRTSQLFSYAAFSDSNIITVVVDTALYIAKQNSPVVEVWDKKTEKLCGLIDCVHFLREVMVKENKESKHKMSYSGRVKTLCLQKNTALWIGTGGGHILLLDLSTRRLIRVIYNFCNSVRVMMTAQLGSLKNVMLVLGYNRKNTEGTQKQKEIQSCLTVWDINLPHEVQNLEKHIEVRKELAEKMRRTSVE
Sequence of UniProt Q12851 (whole entry, looked up): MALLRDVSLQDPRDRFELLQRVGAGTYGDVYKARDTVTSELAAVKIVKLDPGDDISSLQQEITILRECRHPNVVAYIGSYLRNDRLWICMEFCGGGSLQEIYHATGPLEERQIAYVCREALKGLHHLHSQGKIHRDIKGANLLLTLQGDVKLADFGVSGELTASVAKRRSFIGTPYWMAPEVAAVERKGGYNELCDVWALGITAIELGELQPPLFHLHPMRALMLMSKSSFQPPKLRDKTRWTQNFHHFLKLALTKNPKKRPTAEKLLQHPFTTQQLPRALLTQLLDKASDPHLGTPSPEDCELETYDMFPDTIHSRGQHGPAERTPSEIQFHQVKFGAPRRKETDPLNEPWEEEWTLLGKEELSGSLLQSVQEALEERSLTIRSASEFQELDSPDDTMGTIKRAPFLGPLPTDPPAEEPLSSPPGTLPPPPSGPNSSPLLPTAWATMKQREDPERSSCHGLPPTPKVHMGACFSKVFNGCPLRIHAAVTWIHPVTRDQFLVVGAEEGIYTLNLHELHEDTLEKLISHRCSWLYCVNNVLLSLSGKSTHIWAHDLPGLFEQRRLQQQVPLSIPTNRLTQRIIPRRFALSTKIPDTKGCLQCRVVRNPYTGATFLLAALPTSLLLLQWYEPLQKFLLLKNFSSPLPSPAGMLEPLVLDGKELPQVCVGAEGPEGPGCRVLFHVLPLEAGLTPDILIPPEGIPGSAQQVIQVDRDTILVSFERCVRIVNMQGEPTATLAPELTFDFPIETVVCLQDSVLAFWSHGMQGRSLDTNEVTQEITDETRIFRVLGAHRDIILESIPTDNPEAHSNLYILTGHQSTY
Sequence of UniProt P41743 (whole entry, looked up): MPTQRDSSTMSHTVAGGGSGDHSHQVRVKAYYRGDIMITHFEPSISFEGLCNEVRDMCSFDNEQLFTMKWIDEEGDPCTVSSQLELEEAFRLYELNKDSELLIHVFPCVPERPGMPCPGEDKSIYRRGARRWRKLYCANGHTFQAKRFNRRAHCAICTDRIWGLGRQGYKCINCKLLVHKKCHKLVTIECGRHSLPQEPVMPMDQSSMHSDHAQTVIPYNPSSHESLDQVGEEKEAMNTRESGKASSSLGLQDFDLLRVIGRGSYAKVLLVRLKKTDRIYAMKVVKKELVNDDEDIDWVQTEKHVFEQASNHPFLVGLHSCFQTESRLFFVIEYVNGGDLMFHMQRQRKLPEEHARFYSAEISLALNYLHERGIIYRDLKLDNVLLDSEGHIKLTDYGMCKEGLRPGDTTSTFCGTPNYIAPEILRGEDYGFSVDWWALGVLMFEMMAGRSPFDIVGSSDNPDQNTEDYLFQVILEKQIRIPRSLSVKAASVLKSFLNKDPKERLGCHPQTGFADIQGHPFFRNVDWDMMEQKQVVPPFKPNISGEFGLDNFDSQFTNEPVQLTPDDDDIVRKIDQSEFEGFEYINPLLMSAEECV
Sequence of UniProt P07333 (whole entry, looked up): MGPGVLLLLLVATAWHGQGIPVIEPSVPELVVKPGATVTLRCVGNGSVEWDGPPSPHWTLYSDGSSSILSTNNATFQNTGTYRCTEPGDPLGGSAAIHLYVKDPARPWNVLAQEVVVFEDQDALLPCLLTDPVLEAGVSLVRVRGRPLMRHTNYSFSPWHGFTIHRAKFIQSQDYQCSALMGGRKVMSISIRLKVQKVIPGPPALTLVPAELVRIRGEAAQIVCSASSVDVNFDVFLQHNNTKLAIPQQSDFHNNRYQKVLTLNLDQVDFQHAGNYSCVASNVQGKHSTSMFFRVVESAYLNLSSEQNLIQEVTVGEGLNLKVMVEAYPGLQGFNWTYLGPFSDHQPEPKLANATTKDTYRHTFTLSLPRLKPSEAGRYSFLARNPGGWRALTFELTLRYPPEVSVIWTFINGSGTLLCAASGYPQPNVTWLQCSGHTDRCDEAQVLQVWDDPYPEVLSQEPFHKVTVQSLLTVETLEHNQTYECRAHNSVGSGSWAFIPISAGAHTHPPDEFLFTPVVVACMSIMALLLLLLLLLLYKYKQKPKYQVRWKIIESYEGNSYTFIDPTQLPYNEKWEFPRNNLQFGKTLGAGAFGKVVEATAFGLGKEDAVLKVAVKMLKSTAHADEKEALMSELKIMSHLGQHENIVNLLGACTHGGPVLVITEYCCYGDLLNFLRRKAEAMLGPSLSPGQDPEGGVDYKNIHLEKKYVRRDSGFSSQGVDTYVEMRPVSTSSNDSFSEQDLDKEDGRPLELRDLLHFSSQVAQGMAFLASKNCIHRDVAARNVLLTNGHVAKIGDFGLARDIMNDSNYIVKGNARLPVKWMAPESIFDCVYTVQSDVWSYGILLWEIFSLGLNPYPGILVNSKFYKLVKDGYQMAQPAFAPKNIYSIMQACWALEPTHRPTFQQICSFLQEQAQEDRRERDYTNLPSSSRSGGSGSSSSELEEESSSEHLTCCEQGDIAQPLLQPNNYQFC

Study 1
SMILES: N#CC1(c2ccccn2)CCN(Cc2cc(C(=O)N3CCCC3)c(=O)n3ccccc23)CC1
Effect on: cell-free assay
Technique: competition with immobilised ligand
Concentration: 1 µM
Endpoint: remaining binding
CDK7 (Homo sapiens, UniProt P50613): 82%
SRPK3 (Homo sapiens, UniProt Q9UPE1): 82%
CSF1R (Homo sapiens, UniProt P07333): 94%
EGFR (Homo sapiens, UniProt P00533, G719C): 80%
BUB1 (Homo sapiens, UniProt O43683): 100%
ACVR2B (Homo sapiens, UniProt Q13705): 75%
DAPK1 (Homo sapiens, UniProt P53355): 89%
SGK1 (Homo sapiens, UniProt O00141): 100%
LRRK2 (Homo sapiens, UniProt Q5S007, G2019S): 100%
FLT3 (Homo sapiens, UniProt P36888, N841I): 100%
PKMYT1 (Homo sapiens, UniProt Q99640): 79%
TYRO3 (Homo sapiens, UniProt Q06418): 78%
CDK4 (Homo sapiens, UniProt P11802): 91%
PIP5K1A (Homo sapiens, UniProt Q99755): 100%
PIM1 (Homo sapiens, UniProt P11309): 100%

Study 2
SMILES: CC(C)n1cnc(-c2ccc(F)cc2)c1-c1ncc(C(=O)Nc2ccc(N3CCN(C)CC3)cc2)[nH]1
Host: idiopathic pulmonary fibrosis patients
Matrix: plasma
Endpoint: Cmax
30 mg twice daily, week 0, median: 89.6 ng/mL
oral, 30 mg once daily, week 12, arithmetic mean: 111 ng/mL
30 mg twice daily, week 0, arithmetic mean: 114 ng/mL

Study 3
SMILES: N#CC(c1ccnc(NCCc2cccnc2)n1)c1nc2ccccc2s1 (stereo not drawn)
Effect on: enzyme activity
Action: inhibitor
Concentration: 0.5 µM
Reference: control
Endpoint: remaining activity
PRKCI (Homo sapiens, UniProt P41743): 94.4%
PRKG1 (Homo sapiens, UniProt Q13976): 97.5%
CSNK2A1 (Homo sapiens, UniProt P68400): 22.1%
LYN (Homo sapiens, UniProt P07948): 96.4%
EPHA5 (Homo sapiens, UniProt P54756): 113%
MAPK13 (Homo sapiens, UniProt O15264): 100%
MKNK2 (Homo sapiens, UniProt Q9HBH9): 51%
KIT (Homo sapiens, UniProt P10721): 93.6%
NEK4 (Homo sapiens, UniProt P51957): 89.1%
STK38 (Homo sapiens, UniProt Q15208): 100%
LRRK2 (Homo sapiens, UniProt Q5S007): 83.4%
MAP4K2 (Homo sapiens, UniProt Q12851): 76.9%
MAP3K10 (Homo sapiens, UniProt Q02779): 79.6%
AKT3 (Homo sapiens, UniProt Q9Y243): 105%
IRAK4 (Homo sapiens, UniProt Q9NWZ3): 83.7%
PLK2 (Homo sapiens, UniProt Q9NYY3): 95.8%
Cyclin-dependent kinase 9, with cyclin T1 (CDK9, Homo sapiens, UniProt P50750): 23.3%

Study 4
Host: mouse
Matrix: microsomes or S9
Concentration: 2 µM
Time: 0.5 h
Endpoint: remaining compound
CC(=O)c1c([S+]([O-])CCC(C)C)[nH]c2c(Cc3ccccc3)cccc2c1=O (stereo not drawn): 0.669%
CC(C)=CCO[C@H]1CCOC[C@H]1Nc1ncc(F)c(N2CCOCC2)n1: 0.0252%
CCn1nc(C)c(CNc2nnc(C3CCCCC3)o2)c1C: 5.13%
Cc1ccc(S(=O)(=O)NCc2ccccc2)c(C)c1N(C)S(=O)(=O)c1ccccc1: 4.56%

Repeated from above (study 1):
CDK4 (Homo sapiens, UniProt P11802): 91%
CDK7 (Homo sapiens, UniProt P50613): 82%
LRRK2 (Homo sapiens, UniProt Q5S007, G2019S): 100%
PIP5K1A (Homo sapiens, UniProt Q99755): 100%
